Published values from different studies.
Compare with care: the assays were run in different laboratories. Several values in a cell are separate wells, animals, samples, runs or records. Numbers after ± are the reported error.

Cc1cccc(-c2cccc(C)n2)n1.Cc1cccc(-c2cccc(C)n2)n1.F[P-](F)(F)(F)(F)F.F[P-](F)(F)(F)(F)F.[Ru+2].c1ccc2c(-c3nc4c5cccnc5c5ncccc5c4[nH]3)c3ccccc3cc2c1
singlet oxygen quantum yield (aerated acetonitrile; 298 K; reference: Ru(bpy)3(PF6)2): 0.08

C#CCOCCOCCOCCOCCn1cc(C(ONC(=O)/C=C/C(C)=C/C2(C)Oc3cc(N(C)C)ccc3C2=O)(c2ccc(C)cc2)c2ccc(C)cc2)nn1 (centres unmarked)
release from prodrug hydrolysis (HPLC; aqueous buffer, 20% acetonitrile; concentration not given, 94 min, pH 3; reference: initial prodrug amount): 70.1%

CC(C)OCCOCc1ccc(OCC(O)CN(N=O)C(C)C)cc1 (centres unmarked)
lowest dose significant mutation increase (duplex sequencing, measured: mutation frequency; NMRI mouse, bone marrow; oral, 4 weeks): 29.9 mg/kg

C=C(NC(=O)c1csc(-c2nc3c(cc2O)-c2nc(cs2)C(=O)NC(C(C)O)C(=O)NC(=C(C)OC)c2nc(cs2)C(=O)NC2c4nc(cs4)C(=O)NC(COC(=O)c4c5c6c(cccc6n4O)COC(=O)C(OC4CC(C)(O)C(N(C)C)C(C)O4)C2OC5)c2nc-3cs2)n1)C(N)=O (centres unmarked)
Tmax (ICR mice, Streptococcus pneumoniae ATCC 49169 infected, immunocompromised, blood; intravenous, 16 mg/kg/day twice daily): 6.08 h

CCCCN1C(=O)c2cccc3c(NCCCCN4CCOCC4)ccc(c23)C1=O
fluorescence lifetime (toluene): 8.2 ns

CN1CCC[C@]1(C)/C=C/S(=O)(=O)NC(=O)Nc1c2c(cc3c1CC(O)C3)CCC2 (some centres unmarked)
Cmax at first steady-state dose (human, plasma; oral, 100 mg twice daily of parent drug, day 14, metabolite of dosed drug): 12.1 µg/mL

O=C(Nc1cnccc1-c1ccc([18F])cc1)c1ccnc(NC(=O)C2CC2)c1
SUV (FVB/NJ mice (both sexes), bladder; intravenous, dose not given, 120 min): 1.64

O=S(=O)(NCc1ccncc1)c1ccc(C2CCCCC2)cc1
body weight (CK-p25 mouse and littermates; intraperitoneal, 0.3 mg/kg daily, 6 weeks): no effect

[123I]c1ccc2nc(-c3ccc(-n4ccnn4)nc3)cn2c1
tracer uptake (male Wistar rat, blood; intravenous, 4 MBq, 24 h): 0.007 %ID/g

O=C(O)CN1CCN(CC(=O)O)CCN(CC(O)CN(CC(O)CN2CCN(CC(=O)O)CCN(CC(=O)O)CCN(CC(=O)O)CC2)C[C@H](O)[C@@H](O)[C@H](O)[C@H](O)CO)CCN(CC(=O)O)CC1 (some centres unmarked)
log K (pH-potentiometry, measured: ZnHL; 25 °C, 0.15 M NaCl): 9.12

CC(C)[C@H](NC(=O)[C@H](Cc1ccccc1)NC(=O)[C@H](Cc1ccccc1)NC(=O)OCC1c2ccccc2-c2ccccc21)C(=O)N[C@@H](CCC(=O)O)C(=O)N[C@@H](CCC(=O)O)C(N)=O
β-turn content (CD spectroscopy; peptide nanofibres): 12.3%

Oc1cccc(-c2cccc(O)n2)n1.[Cl-].[Cl-].[Ru+2].c1ccc(-c2ccnc3c2ccc2c(-c4ccccc4)ccnc23)cc1.c1ccc(-c2ccnc3c2ccc2c(-c4ccccc4)ccnc23)cc1
singlet oxygen quantum yield (acetonitrile; basic deprotonated form): < 0.01

Fc1ccccc1N1CCN(C2CCCN(Cc3cccc(C(F)(F)F)c3)C2)CC1 (centres unmarked)
translation activity (Trypanosoma cruzi; reporter mRNA translation, inhibitor, measured: Renilla luciferase mRNA; cell-free extract; concentration not given, test 1; reference: positive over negative control): 98.5% and 95.3%

COc1cnc2cccc(N3CCc4c(cc(Cn5ccnc5)cc4-c4cn(C)nc4C(F)(F)F)C3=O)c2c1
AUC(0-t) (male CD-1 mouse, plasma; intraperitoneal, 100 mg/kg): 178 µg·h/mL

O=C(NS(=O)(=O)c1cccs1)c1cc2ccccc2n1Cc1ccc(Br)c2ccccc12
body weight (KM mouse, chronic hyperuricaemia model; dose not given, day 21): 36.6 g and 38.2 g and 32.6 g and 34.6 g and 35.6 g

Nc1nnc(NCc2c(Cl)cccc2Oc2ccccc2)[nH]1
blood glucose (CD1 mice; ip, 3 mg/kg daily, 1 weeks; reference: normal mice): increased

C=CC(=O)N1CCCC(n2c(=O)c3ncccc3n(Cc3ccc(Oc4ccccc4)cc3)c2=O)C1 (centres unmarked)
concentration (male BALB/c mouse, plasma; intraperitoneal, 200 mg/kg, 1 h): 92.6 µg/mL

CC(C)(C)NCC(SS(=O)(=O)O)c1ccccc1 (centres unmarked)
body weight decrease (Swiss Webster mice, Schistosoma mansoni-infected; 100 mg/kg single dose on day 42 post-infection, perfusion day 56 post-infection; reference: vehicle): -4.62%

C/C(N)=N/C(=N\S(=O)(=O)c1ccc(C(F)(F)F)cc1)N1C[C@H](c2ccccc2)C(c2ccc(Cl)cc2)=N1
AUC(0-inf) (C57BL/6 mouse, plasma; intravenous, 10 mg/kg): 10.5 µg·h/mL

O=C(Nc1cccc(CNc2ncccn2)c1)c1cc(-c2ccccc2)n(-c2ccccc2)n1
depletion (rat liver microsomes; 4 h): < 30%

CC1Cc2ccccc2N1C(=O)CN1CCN(Cc2ccccc2)CC1 (centres unmarked)
brain concentration (female NMRI mice, brain; intraperitoneal, 10 mg/kg free base, 15 min): 2.02 µg/mL

Cc1nn(-c2nc3c(F)cc(F)cc3s2)c(O)c1C(c1ccc(C(F)(F)F)cc1)c1c(C)nn(-c2nc3c(F)cc(F)cc3s2)c1O
Clast (ICR mouse, plasma; intraperitoneal, 10 mg/kg): 0.313 µg/mL and 0.15 µg/mL and 0.329 µg/mL

Cc1cc(-c2ccc(C(=O)[C@@H]3CCCC[C@H]3C(=O)Nc3cnn4c3C(=O)NCC4)cc2)[nH]n1
recovery of radioactivity per interval (human, faeces; oral, 200 mg, 48-72 h; reference: dose): 25.3%

C[C@@H](Nc1nc2c(cnn2C(C)(C)C)c(=O)n1Cc1cccc(F)c1)c1ccc(Cl)cc1
brain concentration (C57BL/6J mice, male, brain; oral, 10 mg/kg, 1 h): 236 ± 41.6 ng/g

COc1ccnc(C(=O)N[C@H]2COC(=O)[C@H](Cc3ccccc3)[C@@H](OC(=O)C(C)C)[C@H](C)OC2=O)c1O
KFoc (soil adsorption; clay soil; pH 7.6, organic carbon 1.7 %): 7070 mL/g

O=C([O-])CN1CCN(CC(=O)[O-])CCN(CC(CCCc2ccccc2[N+](=O)[O-])N(CC(=O)[O-])CC(=O)[O-])CC1.[177Lu+3] (centres unmarked)
intact radiolabelled complex (TLC; human serum; 37 h, pH 7, 37 °C): 99.8 ± 0.1%

CC(C)n1ncc2c(C(=O)NC[C@@H](C)N)cc(C3CC3)nc21
scaled CLint (metabolic stability; mouse, liver microsomes): < 2.28 L/h/kg

COc1cccc(OC)c1-c1cc(C(=O)NC2(C(=O)O)C3CC4CC(C3)CC2C4)nn1-c1ccc(C(=O)N(C)CCOCCOCCN(C)C(=O)[C@H](CCCCNC(=O)[C@H](CC(C)C)NC(=O)C2OC2C(=O)O)NC(=O)CN2CCN(CC(=O)[O-])CCN(CC(=O)[O-])CCN(CC(=O)[O-])CC2)cc1C(C)C.[177Lu+3] (mixture of isomers)
tissue uptake (mouse, HT-29 xenograft, muscle; 72 h post injection): 0.12 %ID/g

CN1CCCNC(=O)c2cccc(c2)C(=O)NCCCN(C)CCCNc2cccc3c2C(=O)c2cccc(c2C3=O)NCCC1
body weight (mouse xenograft model; dose not given, day 2): 26 g and 29 g

CC(C)Cn1cc(Cc2cccc(OC(C)(C)C(=O)O)c2)c2ccc(C(=O)N[C@@H](C)c3cc(F)cc(C(C)(C)C)c3)cc21
half-life (mouse liver microsomes; 1 µM, added: microsomes 1 mg/mL): 0.95 h

CNc1cc(N)c(C(N)=O)cn1
concentration at time (Han Wistar rats, male, plasma; oral, 30 mg/kg, 8.00 h): 1.62 µM

COCC1CN(C2CCN(c3cc(OC)c(Nc4ncc(Br)c(Nc5ccc6c(c5P(C)(C)=O)OCCO6)n4)cc3C)CC2)C1
Cmax at steady state (EGFR-mutant NSCLC patients, plasma; oral, 150 mg multiple doses, geometric mean): 1.4 µg/mL

C=CC(=O)Nc1cc(Nc2nccc(-c3c[nH]c4ccccc34)n2)c(OC)cc1N(C)CCN(C)C
recovery (storage stability; human plasma; 5 h, on ice, LLOQ level): 93.4%

O=C(Nc1cnccc1-c1ccc([18F])nc1)c1ccnc(NC(=O)C2CC2)c1
SUV (FVB/NJ mouse, both sexes, liver; intravenous, 30 min): 9.8

O=C([O-])CN1CCN(CC(=O)[O-])CCN(C(CO)C(O)CO)CCN(CC(=O)[O-])CC1.[Dy+3] (centres unmarked)
cumulative urinary excretion (ICP-MS; cynomolgus monkey; dose not given, 2 d, mass balance group; reference: dose): 98.1%

CNc1cc(C)c(C(N)=O)cn1
concentration at time (Han Wistar rats, male, plasma; oral, 30 mg/kg, 2.00 h): 63.3 µM

CC(C)C[C@@H]1NC(=O)[C@H](CCCCN)NC(=O)CNC(=O)[C@H]2CCCN2C(=O)[C@H](CCCCN)NC(=O)[C@H](CC(C)C)NC(=O)[C@H](CCCCN)NC(=O)[C@H](CC(C)C)NC(=O)[C@H](CCCCN)NC(=O)C(N)CCC=CCCC(C(N)=O)NC(=O)[C@H](CCCCN)NC(=O)[C@H](CC(C)C)NC(=O)[C@H](CCCCN)NC1=O (some centres unmarked)
retention time (RP-HPLC C18; hydrophobicity): 16.3 min

Cc1cccc(O[C@H]2CCC[C@@H](C(C)CNCc3ccncc3)C2)c1 (relative stereo)
body weight (C57BL/6 mouse adult female; 50 mg/kg, one month, toxicity study): 28 g

CN(C)CCCCCN(C)Cc1cc2ccccc2o1.Cl
translation activity (Trypanosoma cruzi; reporter mRNA translation, inhibitor, measured: Renilla luciferase mRNA; cell-free extract; concentration not given, test 2; reference: positive over negative control): 108% and 115%

CC(C)(O)c1ncc([S@](N)(=O)=NC(=O)Nc2c3c(cc4c2CCC4)CCC3)s1
total adverse events (healthy human; oral, 3 mg single dose, capsule formulation): 50%

C=CC(=O)Nc1cc(Nc2nccc(-c3cn(C)c4ccccc34)n2)c(OC)cc1N(C)CCNC
remaining compound (human, dried blood spots; 270 ng/mL, 30 d, on ice, high QC level): 50.2%

CC(=O)N([O-])CCCCCNC(=O)CCC(=O)N([O-])CCCCCNC(=O)CCC(=O)N([O-])CCCCCN.[89Zr+4]
tracer uptake (mouse, lung; 1 h): 0.74 %ID/g

CN1CCC[C@]1(C)/C=C/S(=O)(=O)NC(=O)Nc1c2c(cc3c1CCC3O)CCC2 (some centres unmarked)
Cmax at first steady-state dose (human, plasma; oral, 12.5 mg twice daily of parent drug, day 14, metabolite of dosed drug): 12.4 µg/mL

CN(C)S(=O)(=O)c1ccc(S(=O)(=O)N2CCC(n3c(=O)[nH]c4ccccc43)CC2)cc1
relative body weight (mouse; dose not given, day 5; reference: day 0): 100% and 105% and 102%

Some of these lines once more:
CC(C)n1ncc2c(C(=O)NC[C@@H](C)N)cc(C3CC3)nc21
scaled CLint (metabolic stability; mouse, liver microsomes): < 2.28 L/h/kg

C=CC(=O)N1CCCC(n2c(=O)c3ncccc3n(Cc3ccc(Oc4ccccc4)cc3)c2=O)C1 (centres unmarked)
concentration (male BALB/c mouse, plasma; intraperitoneal, 200 mg/kg, 1 h): 92.6 µg/mL

CNc1cc(C)c(C(N)=O)cn1
concentration at time (Han Wistar rats, male, plasma; oral, 30 mg/kg, 2.00 h): 63.3 µM

O=S(=O)(NCc1ccncc1)c1ccc(C2CCCCC2)cc1
body weight (CK-p25 mouse and littermates; intraperitoneal, 0.3 mg/kg daily, 6 weeks): no effect

C#CCOCCOCCOCCOCCn1cc(C(ONC(=O)/C=C/C(C)=C/C2(C)Oc3cc(N(C)C)ccc3C2=O)(c2ccc(C)cc2)c2ccc(C)cc2)nn1 (centres unmarked)
release from prodrug hydrolysis (HPLC; aqueous buffer, 20% acetonitrile; concentration not given, 94 min, pH 3; reference: initial prodrug amount): 70.1%

CC(C)Cn1cc(Cc2cccc(OC(C)(C)C(=O)O)c2)c2ccc(C(=O)N[C@@H](C)c3cc(F)cc(C(C)(C)C)c3)cc21
half-life (mouse liver microsomes; 1 µM, added: microsomes 1 mg/mL): 0.95 h

CN1CCCNC(=O)c2cccc(c2)C(=O)NCCCN(C)CCCNc2cccc3c2C(=O)c2cccc(c2C3=O)NCCC1
body weight (mouse xenograft model; dose not given, day 2): 26 g and 29 g
